Assay results from different studies.
Each line is one published result; not all experiments were run side by side. “And” joins repeats or separate records; there may be more than shown.
Target: Receptor-interacting serine/threonine-protein kinase 2 (RIPK2, Homo sapiens, UniProt O43353)

CN1CCN(Cc2ccc(-c3ccc(CO[C@H]4CCC[C@@H]4NC(=O)c4cc(-c5cnn(C)c5)cnc4N)cc3)cc2)CC1 — inhibition (enzyme activity, inhibitor; 0.1 µM): -1%
COc1cc(Nc2nc(C)cc(-c3cnn4nc(OC)ccc34)n2)cc(C(F)(F)F)c1 — remaining binding (binding, competition with immobilised ligand; 1 µM): 100%
COCC12C(=O)NC3C4(C(OC)CC1O)C1CC5(O)C(OC)C(O)C(OC(C)=O)(C1C5OC(=O)c1ccccc1)C3(O)C(OC)C24 (centres unmarked) — remaining activity (kinase activity, inhibitor, ProQinase kinase profiling; 25 µM; reference: control): 102% and 97%
O=C=[N][Ru-4]123([n]4c5ccc(O)cc5c5c6c(c7cc(F)c[n+]1c7c54)C(=O)NC6=O)[S+]1CC[S+]2CC[S+]3CC1 (centres unmarked) — remaining activity (enzyme activity; 100 nM, human enzyme, with: 10 µM ATP; reference: untreated): 87%
O=C(Nc1ccc(Oc2ncnc3[nH]cc(-c4ccccc4)c23)c(F)c1)c1c2n(n(-c3cc(F)ccc3F)c1=O)CCCC2 — inhibition (enzyme activity, inhibitor; 0.5 µM): 6%
CN1CC[C@@H](COc2cnc(C#N)cc2-c2ccn3nc(NC(=O)C4CC4)cc3c2)C1 — inhibition (enzyme activity, inhibitor; 1 µM): 69%
CNC(=O)C[C@H](Cc1ccc(C#N)cc1)NC(=O)c1cc(-c2ccc(CN[C@H](C)c3ccc(C)cc3)o2)ccc1Cl — activity vs control (enzyme activity, inhibitor; 1 µM): 98%
Nc1ncc2c(n1)-c1c([nH]c3ccc(C4=CCOCC4)cc13)CCC2 — remaining binding (binding, competition with immobilised ligand; 1 µM): 99%
Cc1cccc(O[C@H]2CCC[C@@H](C(C)CNCc3ccncc3)C2)c1 (relative stereo) — inhibition (enzyme activity, inhibitor; 1 µM): -1%
C=CC(=O)Nc1cccc(-c2cnc3[nH]cc(C(=O)NC(C)(C)C)c3n2)c1 — inhibition (kinase activity; 0.1 µM): 4% and 0%
c1ccc2c(Nc3cc(C4CCC4)[nH]n3)nc(Nc3ccc4nc[nH]c4c3)nc2c1 — remaining activity (enzyme activity, inhibitor; 0.25 µM): 18%
C=CC(=O)N1CCCC(n2c(=O)c3ncccc3n(Cc3ccc(Oc4ccccc4)cc3)c2=O)C1 (centres unmarked) — remaining binding (cell-free assay, competition with immobilised ligand; 1 µM): 98%
CCN1CCN(Cc2ccc(C(=O)Nc3ccc(C)c(NCc4cnc5[nH]ccc5c4OC)c3)cc2C(F)(F)F)CC1 — remaining binding (binding, competition with immobilised ligand; 1 µM): 9.6%
C=CC(=O)N1Cc2nc(-c3cc(-c4cc(Cl)cnc4Cl)c(F)cc3F)n(-c3ccncn3)c2C1 — inhibition (cell-free assay, inhibitor; 1 µM): -4.6%
CNC(=O)C1CCN(c2cc(C)c(F)cc2NC(=O)c2ccc(-c3cc(O)ccc3C)c(C)c2)CC1 — remaining binding (binding, competition with immobilised ligand; 1 µM): 40%
NC(=O)C[C@H]1CCc2sc3ncnc(O[C@H]4CC[C@H](N5CCOCC5)CC4)c3c21 — inhibition (enzyme activity, inhibitor; 10 µM): 7%
Cc1cnc2nc1Nc1cccc(c1)COC/C=C/COCc1cc(ccc1OCCN1CCOCC1)N2 — remaining binding (binding, competition with immobilised ligand; 0.1 µM): 100%

Some of these lines once more:
O=C(Nc1ccc(Oc2ncnc3[nH]cc(-c4ccccc4)c23)c(F)c1)c1c2n(n(-c3cc(F)ccc3F)c1=O)CCCC2 — inhibition (enzyme activity, inhibitor; 0.5 µM): 6%
